Assay results of several laboratories.
Numbered parts are unrelated; each lists some results of a single study.

Study 1
Target: Sal-like protein 4, full length isoform A (SALL4, Homo sapiens, UniProt Q9UJQ4, residues 1-1053)
Sequence of UniProt Q9UJQ4 (whole entry, looked up): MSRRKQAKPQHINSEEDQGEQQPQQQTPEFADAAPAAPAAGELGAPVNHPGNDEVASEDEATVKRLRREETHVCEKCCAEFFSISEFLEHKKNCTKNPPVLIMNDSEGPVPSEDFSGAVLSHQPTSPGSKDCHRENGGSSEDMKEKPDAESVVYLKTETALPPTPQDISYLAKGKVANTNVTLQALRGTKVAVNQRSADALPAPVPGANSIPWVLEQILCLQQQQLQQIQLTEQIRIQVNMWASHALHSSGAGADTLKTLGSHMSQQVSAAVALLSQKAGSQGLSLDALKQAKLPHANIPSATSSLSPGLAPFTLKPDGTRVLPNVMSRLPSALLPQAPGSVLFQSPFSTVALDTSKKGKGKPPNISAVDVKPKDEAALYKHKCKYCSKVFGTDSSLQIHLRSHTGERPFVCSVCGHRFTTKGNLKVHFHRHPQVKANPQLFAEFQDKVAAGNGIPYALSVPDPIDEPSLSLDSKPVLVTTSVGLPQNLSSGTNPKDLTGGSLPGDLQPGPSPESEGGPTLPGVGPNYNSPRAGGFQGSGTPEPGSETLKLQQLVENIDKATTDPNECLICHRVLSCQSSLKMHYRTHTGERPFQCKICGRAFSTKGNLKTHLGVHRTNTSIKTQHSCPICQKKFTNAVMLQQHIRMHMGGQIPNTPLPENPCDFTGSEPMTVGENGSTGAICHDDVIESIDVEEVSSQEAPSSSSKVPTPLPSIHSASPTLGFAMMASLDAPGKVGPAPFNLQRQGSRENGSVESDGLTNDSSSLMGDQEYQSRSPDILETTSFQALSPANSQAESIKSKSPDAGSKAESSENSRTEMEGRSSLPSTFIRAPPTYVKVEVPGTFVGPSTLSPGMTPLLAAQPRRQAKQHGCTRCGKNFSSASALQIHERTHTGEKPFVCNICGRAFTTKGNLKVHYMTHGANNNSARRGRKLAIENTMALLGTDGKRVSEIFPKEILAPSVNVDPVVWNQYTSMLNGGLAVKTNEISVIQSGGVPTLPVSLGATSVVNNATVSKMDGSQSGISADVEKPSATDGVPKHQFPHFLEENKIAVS
Technique: universal PBM
Form: double-stranded DNA, one strand shown
Sample: in vitro
Concentration: 600 nM
Notes: 8-mer, flanks averaged, mean of replicates
Direction: higher = stronger binding
Oligonucleotide | E-score
GAAGGTAA | 0.163
GACGGACA | -0.156
CCCCGGTC | -0.37
CTCTGGCC | -0.181
CCACAAGG | -0.241
GCCTTTAC | 0.0034
GGCCATAC | -0.169
TACGACAA | 0.128
TATCTGGA | 0.0929
GAGATACA | 0.266
CCTAGAGA | -0.0818
CTCTTCTC | -0.0293
GGCCGCTA | -0.298
GCACCGAA | -0.0793
GTTCTGTA | 0.0179
CACATGGG | -0.231
ATCTGTAC | 0.227
GTTGGCTA | -0.0674
ACGGACTA | 0.00842
GTGTCAAA | 0.108
CGTAAAGC | -0.0864
AGACGCGC | -0.252
CGTGGACA | -0.23
GACTCGAA | -0.174
CTGCATTC | -0.0165

Study 2
Target: Ras GTPase-activating protein-binding protein 1, full length (G3BP1, Homo sapiens, UniProt Q13283)
Sequence of UniProt Q13283 (whole entry, looked up): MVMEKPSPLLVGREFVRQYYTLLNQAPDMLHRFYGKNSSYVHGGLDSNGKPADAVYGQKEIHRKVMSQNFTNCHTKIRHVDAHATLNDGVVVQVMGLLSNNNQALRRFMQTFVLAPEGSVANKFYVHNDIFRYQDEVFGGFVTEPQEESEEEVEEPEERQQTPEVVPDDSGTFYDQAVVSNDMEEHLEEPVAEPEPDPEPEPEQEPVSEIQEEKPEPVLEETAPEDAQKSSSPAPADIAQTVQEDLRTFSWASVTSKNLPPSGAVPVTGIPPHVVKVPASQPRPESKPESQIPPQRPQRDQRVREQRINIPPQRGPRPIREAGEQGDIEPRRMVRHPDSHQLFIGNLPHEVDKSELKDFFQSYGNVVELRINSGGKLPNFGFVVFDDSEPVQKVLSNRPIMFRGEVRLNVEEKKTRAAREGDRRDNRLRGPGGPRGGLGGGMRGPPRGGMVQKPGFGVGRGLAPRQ
Technique: RNA Bind-n-Seq
Form: RNA
Sample: in vitro
Concentration: 200 nM
Notes: whole 134-nt RNA, ends assumed
Together with: 150 mM LiCl
Reference: input library
Direction: higher = stronger binding
All molecules: 7-deaza-guanosine replaces G
Constant ends, left off below: GGGAGUUCUACAGUCCGACGAUC … UGGAAUUCUCGGGUGUCAAGG
Oligonucleotide | log2 enrichment
AAGUCCUGUGCUACACAUCGUAUGUACCGAAUCGGGUUUGGGGUUUGGGGUUUGGGAAAGUAUUAUGUUACGCCGUUCGGAUCUGCACUU | -0.96
UCAAGUCCUGUGCUACACAUCGUAUGUACCGAAUCGGGGCCGGCCGGGCCGGGGAAAGUAUUAUGUUACGCCGUUCGGAUCUGCACUUCC | 0.704
UCAGGAAGUAAAAACAAAUGGAAAUGCUUCGGAUAGUGGCAGGGGUGGGGGUUGCUAAGGAAAGGGUGGGAUGGGAGUGGGUAAAGAGUU | -0.455
UUCCUUUCCGUUGUGUGUUUUAAAGGUGUGUGCCCUCUUCCUGAUUCUGGAGAAAAAUGCCGGUCCGGAAGCAAGGUGAGAGUUUAUUCC | 1.24
AAGUCCUGUGCUACACAUCGUAUGUACCGAAUCGGCCCCGGCCCCGGGGCCCCGGGGAAAGUAUUAUGUUACGCCGUUCGGAUCUGCACU | -1.33
UCCUGUGCUACACAUCGUAUGUACCGAAUCGGGGCCCCCCGGCCCCCCGGCCCCCCGGGAAAGUAUUAUGUUACGCCGUUCGGAUCUGCA | 0.338
CCUGUGCUACACAUCGUAUGUACCGAAUCGGGUUUUUUGGGGUUUUUUGGUUUUUUGGGGAAAGUAUUAUGUUACGCCGUUCGGAUCUGC | 0.211
ACCAUGCAGGUGGGCAUCUUUGGGAAGUGGGGCAAGGGGGGGAUAGGUAGGGGGGUAACACUUUGGGAACAGGUGGUCCCAGGUCGUUUC | 0.393
AAGUCCUGUGCUACACAUCGUAUGUACCGAAUCGGGAAAAAGGGUUUGGGAAAGGGAAAGUAUUAUGUUACGCCGUUCGGAUCUGCACUU | -1.2
CCUGUGCUACACAUCGUAUGUACCGAAUCGGCCCCCCCGGGGCCCCCCCGGCCCCCCCGGAAAGUAUUAUGUUACGCCGUUCGGAUCUGC | 0.11
UAACUUUAGAGGAGGAUCUGAUGGAUAUGGCAGUGUACGUGGAUUUGGGGAUGGCUAUAAUGGGUAUGGAGGAGGACCUGGAGGUGGCAA | 0.0624

Study 3
Target: Centromere-binding protein 1, full length, His-tagged (CBF1, Saccharomyces cerevisiae, UniProt P17106, residues 1-351)
Sequence of UniProt P17106 (whole entry, looked up): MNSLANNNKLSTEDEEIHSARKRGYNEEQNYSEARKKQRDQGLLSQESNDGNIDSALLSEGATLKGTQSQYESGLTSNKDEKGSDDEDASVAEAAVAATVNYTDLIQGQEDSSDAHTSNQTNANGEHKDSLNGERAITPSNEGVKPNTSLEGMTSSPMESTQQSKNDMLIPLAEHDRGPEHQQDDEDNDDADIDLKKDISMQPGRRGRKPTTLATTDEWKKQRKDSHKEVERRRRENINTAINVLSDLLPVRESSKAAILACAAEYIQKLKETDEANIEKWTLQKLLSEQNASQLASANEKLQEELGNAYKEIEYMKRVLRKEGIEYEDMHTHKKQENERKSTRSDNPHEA
Technique: competition protein-binding microarray
Form: double-stranded DNA, one strand shown
Sample: in vitro
Concentration: 2 µM
Notes: whole 60-bp probe, lowest competitor level
Together with: Pho4 competitor, 0.05 µM
Direction: higher = stronger binding
Constant ends, left off below: … GTCTTGATTCGCTTGACGCTGCTG
Oligonucleotide | fluorescence intensity
CACTAAATTTGGAAGCTCGTGTACTCATAAACAATT | 111 a.u.
TTCAGCAAACGGCAGCATGTGAAAAAACCCGTAGAA | 95.5 a.u.
CGAAGGACGTCGCTACACGTGAAAATTCTCCACCAA | 593 a.u.
CTTCCGATAACTCCGCACGGCAAGGAGTAGTGGCGA | 55.5 a.u.
CGTAACCAGACGAGTCACGTGTAATTTTGTAACTCA | 8970 a.u.
ACTGGCTCTATTTTGCACGCAACTTGTGCAGCTTTA | 85.5 a.u.
CCAAAGGTAACTTAGCGTGTGATATCACCGGAAGAG | 82.6 a.u.
ACAATAACTGGGAAACCGATCTCCTTGACAGCGGCC | 66 a.u.
CGGGGTTAAGTTTGGCCGGTGGGTGGCTTGCAGCAG | 80.7 a.u.
GAATGCAAACCCCATCACGTGAAATAGAGAACAATC | 2170 a.u.
TGGGCGGAAATCGCGCAGATGTGGTGTTTGAGTGTT | 80.1 a.u.
TTTGTGTGCTACCTGCTCGTGACGGCGGTCTTTTTG | 178 a.u.
GGCTTTCTAAGTGAGCTCGTGCCAGCACAATTAATA | 123 a.u.
GTATAAATGTAGTTAAAAGTTTTTGTTTTGATAATT | 90.6 a.u.
AACCTACCATGGTAGCACATGAAGAAGCAACCACCC | 68.5 a.u.
ATATGCCAGGCAAATAACGTGTCGGTGATTGTGAAG | 138 a.u.
CTCTAATCCCACTACCACATGCCATACTCACCTTCA | 93.4 a.u.
GGCAATTGCAAGCCCGTCGTGCTTTTGGGGTGATAT | 99.6 a.u.
CACTTCGGTTAGCATCACTTTTAACCAATCTCTTTC | 67.1 a.u.
CTTCAGTCCTCAAGGGGCGTGCTTTTTGCTCTTGCT | 66.7 a.u.
CATACCCAACCTTGTCACTACACTTAAGATATTTGT | 73.6 a.u.
TTTTTTTGCTACCAACACGTGCCAGTGGTTTAGGTA | 1730 a.u.

Study 4
Target: Interferon regulatory factor 7, full length, phosphomimetic (IRF7, Homo sapiens, UniProt Q92985, residues 1-503, S101K/S471D/S472D/S475D/S476D/S477D/S483D/S484D/S487D)
Sequence of UniProt Q92985 (whole entry, unmodified, looked up): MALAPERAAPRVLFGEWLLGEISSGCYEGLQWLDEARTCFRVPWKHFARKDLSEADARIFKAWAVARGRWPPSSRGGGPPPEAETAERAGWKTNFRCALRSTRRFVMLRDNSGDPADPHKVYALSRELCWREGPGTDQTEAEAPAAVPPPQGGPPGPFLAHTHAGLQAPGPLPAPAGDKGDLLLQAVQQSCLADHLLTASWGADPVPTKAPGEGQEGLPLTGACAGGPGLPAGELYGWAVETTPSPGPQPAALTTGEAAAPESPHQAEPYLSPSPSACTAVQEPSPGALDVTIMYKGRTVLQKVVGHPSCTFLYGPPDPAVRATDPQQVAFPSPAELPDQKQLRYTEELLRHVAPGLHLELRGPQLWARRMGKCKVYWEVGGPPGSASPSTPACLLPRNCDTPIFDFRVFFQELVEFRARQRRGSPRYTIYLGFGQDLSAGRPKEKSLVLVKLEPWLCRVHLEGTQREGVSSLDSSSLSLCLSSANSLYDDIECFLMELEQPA
Technique: protein-binding microarray
Form: double-stranded DNA, one strand shown
Sample: in vitro
Concentration: 250 nM
Notes: 60-bp whole probe
Together with: salmon DNA 0.4 mg/ml
Reference: random background probes
Direction: higher = stronger binding
Constant ends, left off below: GCCTAGCAC … GTCTTGATTCGCTTGACGCTGCTG
Oligonucleotide | log fluorescence [z-score]
TCATCTGTCCGTGCTCAGACTGTGCTA | 0.536
TTAGGACTGGGTTTCGGTCAGTGCTAG | 1.9
TTAGGTTTCGCTCTCGGTTAGTGCTAG | 6.18
TTAGGTATCGGGTTCGGTTAGTGCTAG | 3.32
GACGATTTCAGTCTCGGGACGTGCTAG | 0.19
GTAGGTTTCGGTTCCGGTTAGTGCTAG | 13.1
TCAGCCCTCACCATCATACTGTGCTAG | -0.627
TTCATTTTCCAAATGCCCTCGTGCTAG | 1.44
TCAGATTTCAGTTTCTCACTGTGCTAG | 1.55
TTCGAACTGGGGTTTCGATTAGTGCTA | 6.02
GACGGACTGTGTCTCGGGACGTGCTAG | -0.346
TTAGGTATCCTTCTCCGTTAGTGCTAG | 0.599
GACGGTATCGACACAGGGGACGTGCTA | -0.0662
TTAGGACTGGGGTACCGGTTAGTGCTA | 0.185
GACGATTCCCTTTTCCTGACGTGCTAG | 1.37
GACGGTTTCGGTCTCGGAACGTGCTAG | 8.42
AAGGCTTTGCTTCCTGCAGAGTGCTAG | -0.235
TCATACATCTCTCTTAAACTGTGCTAG | 0.406
TCACTTTTCATTACTGCACTGTGCTAG | 1.36
TCATGTCTGTAGCTCATACTGTGCTAG | -0.0162
GACGCACTGGGTATCGGGACGTGCTAG | -0.0119

For quick reference, copied from above (study 2):
Oligonucleotide | log2 enrichment
ACCAUGCAGGUGGGCAUCUUUGGGAAGUGGGGCAAGGGGGGGAUAGGUAGGGGGGUAACACUUUGGGAACAGGUGGUCCCAGGUCGUUUC | 0.393
AAGUCCUGUGCUACACAUCGUAUGUACCGAAUCGGGUUUGGGGUUUGGGGUUUGGGAAAGUAUUAUGUUACGCCGUUCGGAUCUGCACUU | -0.96
UCAAGUCCUGUGCUACACAUCGUAUGUACCGAAUCGGGGCCGGCCGGGCCGGGGAAAGUAUUAUGUUACGCCGUUCGGAUCUGCACUUCC | 0.704
AAGUCCUGUGCUACACAUCGUAUGUACCGAAUCGGCCCCGGCCCCGGGGCCCCGGGGAAAGUAUUAUGUUACGCCGUUCGGAUCUGCACU | -1.33
UCAGGAAGUAAAAACAAAUGGAAAUGCUUCGGAUAGUGGCAGGGGUGGGGGUUGCUAAGGAAAGGGUGGGAUGGGAGUGGGUAAAGAGUU | -0.455
UCCUGUGCUACACAUCGUAUGUACCGAAUCGGGGCCCCCCGGCCCCCCGGCCCCCCGGGAAAGUAUUAUGUUACGCCGUUCGGAUCUGCA | 0.338
UUCCUUUCCGUUGUGUGUUUUAAAGGUGUGUGCCCUCUUCCUGAUUCUGGAGAAAAAUGCCGGUCCGGAAGCAAGGUGAGAGUUUAUUCC | 1.24
CCUGUGCUACACAUCGUAUGUACCGAAUCGGGUUUUUUGGGGUUUUUUGGUUUUUUGGGGAAAGUAUUAUGUUACGCCGUUCGGAUCUGC | 0.211
CCUGUGCUACACAUCGUAUGUACCGAAUCGGCCCCCCCGGGGCCCCCCCGGCCCCCCCGGAAAGUAUUAUGUUACGCCGUUCGGAUCUGC | 0.11
UAACUUUAGAGGAGGAUCUGAUGGAUAUGGCAGUGUACGUGGAUUUGGGGAUGGCUAUAAUGGGUAUGGAGGAGGACCUGGAGGUGGCAA | 0.0624
AAGUCCUGUGCUACACAUCGUAUGUACCGAAUCGGGAAAAAGGGUUUGGGAAAGGGAAAGUAUUAUGUUACGCCGUUCGGAUCUGCACUU | -1.2
